Experimental data pooled from the literature.
Numbered parts are unrelated; each lists some results of a single study. Changes are numbered by the printed parent chain.

Study 1 — technique: protein-binding microarray; molecule type: double-stranded DNA, one strand shown; matrix: in vitro; tested at: 0.8 µM; notes: whole 60-bp probe, no competitor; direction: higher = stronger binding; shared flanks, not repeated: … GTCTTGATTCGCTTGACGCTGCTG
Target: Centromere-binding protein 1, full length, N-terminal tag (CBF1, Saccharomyces cerevisiae, UniProt P17106, residues 1-351)
UniProt P17106, sequence (whole entry, looked up): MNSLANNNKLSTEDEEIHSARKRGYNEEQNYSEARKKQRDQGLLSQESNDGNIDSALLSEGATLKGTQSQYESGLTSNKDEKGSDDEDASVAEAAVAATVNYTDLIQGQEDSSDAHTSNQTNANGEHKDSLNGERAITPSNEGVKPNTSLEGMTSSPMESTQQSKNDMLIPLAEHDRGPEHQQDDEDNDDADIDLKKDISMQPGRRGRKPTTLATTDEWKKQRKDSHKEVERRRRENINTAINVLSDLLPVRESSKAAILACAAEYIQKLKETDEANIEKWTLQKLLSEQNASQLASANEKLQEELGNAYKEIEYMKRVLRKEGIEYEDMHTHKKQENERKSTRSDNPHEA
Sequence | fluorescence intensity [a.u.]
CCTAACTACTATAACCACGCCTCATAGCTTCGTACA | 547
GAATGTCTTGAAATGCGCGTGTCCGTAAAATATTAG | 678
CTAAGTTAGAACGATCACGTTGACTCTGAAATATTC | 1710
CCTAACTACTATACGCGCGTGCTATAGCTTCGTACA | 648
CTATAATAAAATCATCACCTCCGTTGCCTTTAGTTC | 531
CTATCCTTCGAGCACAACGTGGCATTATATATATTC | 670
GAATGCATAAATATTCACATGGCGGAGATCATGTAG | 674
TGTACGAAGCTATATCAGTTGCGTATAGTAGTTAGG | 523
GAAACCACTGCTTTCCACCTGATTTACTCTCATTAG | 603
GAAATGTTTATATGTAATCAGCTGTATTTATATTAG | 625
GAAACCAATGAGTCAAACGTGAGCGATGCTCCCTAG | 510
GAAGTAAGATCGGATCACGCTGCCAAGGCGCATTAG | 708
CTAGTAAATAGAACACACGTTTTTTAATTTATTTTC | 652
GAACGTATTTGCGCTCACGTTGCACGAACACGGTAG | 1330
GAAAGGAGGTAACATCAGGTCCGTGGATATGTTTAG | 507
CTAGCTTTCGATTACCATGTGCAATCTGTCTATTTC | 641
GAACCATTACCTACTAACGTGAGCGTAGAAGTTTAG | 573
CTACAATTTTAAGAATACGTGATAGATGCTTCGTTC | 592
GAAATTTTGTTCTGTCACCTTTGTGGATGTCTTTAG | 543

Study 2 — target: CCND3, cyclin fold, Cln2 fusion (human); technique: yeast growth competition, sequencing; matrix: yeast; notes: weak parent motif; relative to: not given; direction: higher = stronger binding
Starting sequence: WEE1 docking peptide (human); HKTFRKLRLFDTP; partner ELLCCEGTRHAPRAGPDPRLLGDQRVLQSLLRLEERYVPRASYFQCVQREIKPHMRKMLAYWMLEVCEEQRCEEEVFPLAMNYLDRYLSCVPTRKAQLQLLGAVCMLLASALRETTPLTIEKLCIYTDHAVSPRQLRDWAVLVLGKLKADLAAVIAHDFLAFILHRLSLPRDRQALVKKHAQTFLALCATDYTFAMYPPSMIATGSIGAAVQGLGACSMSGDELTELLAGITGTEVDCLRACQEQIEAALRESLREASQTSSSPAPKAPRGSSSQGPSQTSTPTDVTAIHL
Variant | normalised enrichment score
K6A | 0.0434
P13D | 0.19
K6G | 0.11
T3H | 0.204
H1S | 0.266
T12N | 0.288
F4K | 0.155
F10L | 0.0581
F10G | -0.0135
R5E | 0.146
T3Q | 0.0432
F4S | 0.0781
L9D | 0.0382
L9Y | 0.123
K6M | 0.061
R8V | 0.122
F4Q | 0.0947
H1R | 0.0923
D11M | 0.129
L7H | 0.0639
T12W | 0.217
L7D | -0.0347

Study 3 — technique: Sort-seq; measured: YFP reporter; matrix: E. coli; notes: PhoQ-PhoP variant library; added: 10 µM Mg2+; relative to: high Mg2+ state; direction: higher = stronger signaling
Molecule: PhoQ, residues 284 288 289 292 302 303 SSLVEF
target | fold induction
PhoP, residues 12 14 15 18 19 SHWTV (Escherichia coli, UniProt P23836) | 0.564
PhoP, residues 12 14 15 18 19 QYCSL (Escherichia coli, UniProt P23836) | 8.91
PhoP, residues 12 14 15 18 19 STHWV (Escherichia coli, UniProt P23836) | 1.02

Study 4 — technique: RNA Bind-n-Seq; molecule type: RNA; matrix: in vitro; tested at: 365 nM; relative to: no-protein control; direction: higher = stronger binding
Target: RNA binding protein fox-1 homolog 2, RRM domain, GST-SBP tag (RBFOX2, Homo sapiens, UniProt O43251-10, residues 100-194)
Notes: natural RNA segment, single round, ends assumed
Shared flanks, not repeated: GGGAGUUCUACAGUCCGACGAUC … UGGAAUUCUCGGGUGCCAA
Construct (chain): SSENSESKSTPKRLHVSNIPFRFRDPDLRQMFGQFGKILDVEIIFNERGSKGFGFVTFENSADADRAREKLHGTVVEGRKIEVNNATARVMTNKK
Sequence | RBNS enrichment (R)
UUACUAUGCUAUCAAUUCCAUAUAUGGAAAGGUGUUUUCCCUUUCAGAGCUCUUUAAAGCUCUGCAGAAGAUUUACAUGUGUUUAUAGAGCUAAGAGAAAUCAGGGCAUG | 0.937
UACCAUUUCAUGGUGGUCGUUGGGUCCGCCUAAAGGAUUUGAGCGUUUGCCAUUGCAAGCAUAGUGCUGUGUCAUCCUGGUCCAUGUAGGACUGGUGCUAACCACCUGCC | 0.221
UUGCUGUCCCUACAAUAUAUAAGGUGACUUCUGGCCAUGCUGCCCUGCCAUUGGCGGCUCUGUGUGUUAAUAGGCUAGGGAGAGAGGGGUGCUGUCUGCCACUUGCUCCC | 0.522
AGAAGCACAGCUACCUGCCUUCACUGAAAUAUACCUCAGGCUGAAAUUUGGGGUGGGAUAGCAGGUCAGUUGAUCUUCUGCAGGAAGGUGCAGCUUUUCCAUAUCAGCUC | 0.235
AUUUGAAAGAUUGAGCCAAAUUCUGUUGUCAGUUCUAAGCAUGCAGUUCUCACCUCCAUUUAGUCCCCCAUCAGAACAGAGGUCAGGAAUUUAGCUGGGGAGCCUAAAUU | 20.9
CUGACAGCUCUAUCCCAUCCCAGUCCUUGUCCCUGUCUGUUGACUCUGCUUUACCUUCUUAAGCCACCUAAUUGUUGGCCCCACUACGGGUAGCCAGAGGCUUUGAGCCU | 0.816
CCUCUUCCCGUCACAAUCAACUUUGGAUUCUGUAUUUUUUUAUAAUAAAAUGAGCAUAAACCUCAAACGCGUGUGUCUGUAUGUGGGGGCCUUGCCCUACUUGAAGGAGA | 0.542
AUGCUAAGUCAAAACGGCCCUUAGUCACGACCUUGUUGUGGCCCCUCCCUUGUCAUCAGUAGUAACCUAUACUCAAGUGCCUGUGUCUUCUCAUCUCACUUAGGAUUGUA | 0.347
CGUGGCCUUGUCUAGACCCAGUCCUGAGCAGAGGAGCCUGGUGCCCUCCCAGUCCACAGGGUCUUCCCACUGCCCCUCCUCUGCCACUGCCACAGAGCAGCUUCCCACCU | 0.223
CCUCAUUGAACACGAGAUGGAGCUAGGAAUGCACGUGGGGCUGUGAACUGGAUGCACUGGCCAUAGCUAGCAUCAAUGUCCCCGUGUUUCCAGGAACCCCUGCCAUGAGG | 0.899
GGACGUGGGGCAGCCACCCCUGCCCAGCGAGAGCGCAGACACCGUGUGAGGGGACAGCAGCCCUUGGUGCAAAGCCAGAGACUGAUCCUGGCUCUGACGGCUGAAGAGGG | 0.3
CCAGUGAACACAGAGCAGCUAGAGGCUCCUCCUCUGCUGGCUUAGGGUCAGAAGUACCUCACAGUGGUUGUGGACAUGGAAGAGUUUUGUCAACACAACACUUUGUCCCC | 0.32

Study 5 — technique: DHFR PCA, deep sequencing; matrix: yeast; added: (+)-ABA 0.39 µM; relative to: wild-type fitted maximum; direction: higher = stronger binding
Target: ABI1, truncated, D143A, DHFR fusion (Arabidopsis thaliana)
Notes: methotrexate growth selection, single substitutions
Starting sequence: PYL1, truncated, DHFR fusion (Arabidopsis thaliana); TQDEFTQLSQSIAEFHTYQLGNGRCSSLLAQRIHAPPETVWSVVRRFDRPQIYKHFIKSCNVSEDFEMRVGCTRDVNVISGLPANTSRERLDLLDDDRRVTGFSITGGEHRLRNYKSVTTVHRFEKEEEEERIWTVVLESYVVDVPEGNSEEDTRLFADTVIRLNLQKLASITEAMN
Variant | relative binding score [%]
D48K | -10.7
A170T | 23.3
N177H | 59
G108V | -8.08
S11R | 1.48
N61G | 4.86
V142S | 26.5
L94S | 0.242
E127I | 35.8
A158T | 47.8
V145E | -10.3
Y53C | -5.23
D92G | -0.449
Q2H | 47.7
D3P | 38.6
S140E | 2.23
S104Y | -16.4
A30S | 48.2

Study 6 — target: CEBPA, bZIP domain (human); technique: DHFR protein complementation; matrix: yeast; relative to: wild-type JUN-FOS pair; direction: higher = stronger binding
Notes: single substitutions, most at no-binding floor
Starting sequence: JUN, bZIP domain (human); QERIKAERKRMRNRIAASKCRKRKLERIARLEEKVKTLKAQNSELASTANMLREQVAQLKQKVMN; partner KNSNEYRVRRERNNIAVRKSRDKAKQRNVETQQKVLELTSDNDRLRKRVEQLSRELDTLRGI
Variant | binding fitness [natural log]
M51N | -1.55
E44F | -1.49
E32M | -1.5
R53K | -1.5
A57E | -1.46
T48L | -1.33
S43R | -1.38
K39Y | -1.36
A29K | -1.58
T37C | -1.38
V35F | -1.54
A29S | -1.43
V35Y | -1.45
L52W | -1.59
A40T | -1.38
S47H | -1.46
A40Q | -1.45
L45E | -1.56
E33A | -1.29
E32H | -1.46
K39N | -1.46
N42S | -1.5
E44L | -1.36
S47L | -1.32
A49G | -1.48

Repeated from above (study 1):
Sequence | fluorescence intensity [a.u.]
CTAAGTTAGAACGATCACGTTGACTCTGAAATATTC | 1710
CCTAACTACTATACGCGCGTGCTATAGCTTCGTACA | 648
CTATAATAAAATCATCACCTCCGTTGCCTTTAGTTC | 531
CTATCCTTCGAGCACAACGTGGCATTATATATATTC | 670
GAATGCATAAATATTCACATGGCGGAGATCATGTAG | 674
TGTACGAAGCTATATCAGTTGCGTATAGTAGTTAGG | 523
GAAACCACTGCTTTCCACCTGATTTACTCTCATTAG | 603
GAAATGTTTATATGTAATCAGCTGTATTTATATTAG | 625
GAAACCAATGAGTCAAACGTGAGCGATGCTCCCTAG | 510
GAAGTAAGATCGGATCACGCTGCCAAGGCGCATTAG | 708
CTAGTAAATAGAACACACGTTTTTTAATTTATTTTC | 652
GAACGTATTTGCGCTCACGTTGCACGAACACGGTAG | 1330
GAAAGGAGGTAACATCAGGTCCGTGGATATGTTTAG | 507
